Results gathered from unrelated publications.
Numbered parts are unrelated; each lists some results of a single study. Values joined by “and” are separate records of one study, mostly repeats; a detail may differ.
UniProt P41143, sequence (whole entry, looked up): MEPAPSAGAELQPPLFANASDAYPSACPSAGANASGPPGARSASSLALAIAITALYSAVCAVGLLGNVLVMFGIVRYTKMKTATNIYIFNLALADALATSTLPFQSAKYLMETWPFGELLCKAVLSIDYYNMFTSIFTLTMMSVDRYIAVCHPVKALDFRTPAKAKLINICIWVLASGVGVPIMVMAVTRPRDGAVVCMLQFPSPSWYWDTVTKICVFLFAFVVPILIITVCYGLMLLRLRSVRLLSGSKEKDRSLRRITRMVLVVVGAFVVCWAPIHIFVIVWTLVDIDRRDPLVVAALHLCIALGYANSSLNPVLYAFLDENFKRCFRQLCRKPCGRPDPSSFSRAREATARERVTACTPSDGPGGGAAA
UniProt P28335, sequence (whole entry, looked up): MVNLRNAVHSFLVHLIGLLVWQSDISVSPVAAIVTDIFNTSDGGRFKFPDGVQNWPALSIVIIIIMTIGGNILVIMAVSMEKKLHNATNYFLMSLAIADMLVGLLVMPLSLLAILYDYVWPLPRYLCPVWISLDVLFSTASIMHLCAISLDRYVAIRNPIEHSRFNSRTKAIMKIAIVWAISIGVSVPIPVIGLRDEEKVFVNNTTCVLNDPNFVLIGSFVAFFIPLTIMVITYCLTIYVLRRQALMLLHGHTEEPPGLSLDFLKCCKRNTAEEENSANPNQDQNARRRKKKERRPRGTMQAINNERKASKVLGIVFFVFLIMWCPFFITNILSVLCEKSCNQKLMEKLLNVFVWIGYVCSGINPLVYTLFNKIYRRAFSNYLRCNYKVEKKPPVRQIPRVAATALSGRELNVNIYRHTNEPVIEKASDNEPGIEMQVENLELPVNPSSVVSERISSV
UniProt P11229, sequence (whole entry, looked up): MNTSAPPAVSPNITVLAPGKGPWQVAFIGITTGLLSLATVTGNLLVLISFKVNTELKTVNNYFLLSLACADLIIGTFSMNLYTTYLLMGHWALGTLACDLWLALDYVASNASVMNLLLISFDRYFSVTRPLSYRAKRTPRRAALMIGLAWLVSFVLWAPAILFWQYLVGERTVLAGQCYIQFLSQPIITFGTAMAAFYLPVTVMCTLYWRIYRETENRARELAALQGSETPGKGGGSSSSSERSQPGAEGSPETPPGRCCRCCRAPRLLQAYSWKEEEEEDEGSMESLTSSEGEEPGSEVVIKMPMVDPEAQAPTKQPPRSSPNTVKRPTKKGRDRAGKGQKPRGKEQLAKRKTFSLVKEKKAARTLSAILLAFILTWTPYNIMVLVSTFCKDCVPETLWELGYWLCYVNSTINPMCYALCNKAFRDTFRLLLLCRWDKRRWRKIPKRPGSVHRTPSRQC

Set 1
SMILES: CO[C@@H](C)c1c(Nc2ccc([C@@H](N(C)C(=O)C3CCS(=O)(=O)CC3)C(F)(F)F)cc2)cnc2cc(Cl)nn12
Read-out: binding
Method: radioligand binding
Tested at: 10 µM
Measurement: inhibition
target = CHRM1 (Homo sapiens, UniProt P11229); result = -2.39%
target = HTR2C (Homo sapiens, UniProt P28335); result = 3.25%
target = OPRD1 (Homo sapiens, UniProt P41143); result = -31.4%

Set 2
Compound: CCOc1ccc(Nc2c3c(nc4ccccc24)CCC3)cc1
Organism: Leishmania donovani
Measurement: inhibition
test = parasite growth; system = DD8 amphotericin B-resistant, promastigotes; setting = 0.66 µM; result = 17% and 14% and 12% and 15% and 18% and 11%
test = parasite growth; system = DD8 amphotericin B-resistant, promastigotes; setting = 6.66 µM; result = 88% and 81% and 80% and 84% and 82%
system = THP-1 intracellular amastigotes, DD8 resistant line; setting = 4 µM, resistance confirmation; result = 41%
test = parasite growth; system = DD8 amphotericin B-resistant, intracellular amastigotes; setting = 20 µM; result = 100% and 101%
test = parasite growth; system = DD8 amphotericin B-resistant, intracellular amastigotes; setting = 0.08 µM; result = 1% and 12% and 14% and 2% and 9%
test = parasite growth; system = DD8 amphotericin B-resistant, promastigotes; setting = 1.66 µM; result = 41% and 52% and 46% and 42%
test = parasite growth; setting = 3.33 µM, promastigote; result = 23%

Set 3
Cell line: HEK-293T-ACE2-TMPRSS2
Method: cell count
Tested at: 10 µM
Measurement: viability
SMILES = CCCN(CCC)C(=O)c1c[nH]c2ccc(S(=O)(=O)N(C)c3ccccc3OCC)cc2c1=O; result = 109%
SMILES = Fc1ccccc1CN1CCCC(NCc2cccn2-c2nccs2)C1 (centres unmarked); result = 83%
SMILES = O=C(CCc1ccccn1)N1CCCC(CNC(=O)C2(c3ccc(Cl)cc3)CC2)C1 (centres unmarked); result = 109%
SMILES = CCc1c2c(nc3ccc(O)cc13)-c1cc3c(c(=O)n1C2)COC(=O)[C@]3(O)CC; result = 93%
SMILES = O=C(/C(=C/c1cccnc1)c1nc2ccccc2[nH]1)c1ccccc1; result = 257%
SMILES = c1cc(-c2noc(CSc3nnnn3C3CC3)n2)cs1; result = 103%
SMILES = CCCOC1CCCN(C(=O)c2ccc(OC3CCN(Cc4ccccn4)CC3)cc2)C1 (centres unmarked); result = 104%
SMILES = Cc1ccc(NC2CCCN(C(=O)c3scc4c3OCCO4)C2)cc1C (centres unmarked); result = 108%
SMILES = CC(=O)NCC(=O)N1CC(F)(F)C[C@H]1c1nc(C2CC2)no1; result = 93%
SMILES = CC(C)(O)C#Cc1ccc(CN2CCCC(CCC(=O)N3CCOCC3)C2)s1 (centres unmarked); result = 111%

Set 4
Cell line: HEK-293T/ACE2
Read-out: pseudovirus infection
Method: counter-screen
Organism: VSV pseudotyped with VSV-G
Tested at: 10 µM
Time: 16 h
Reference: vehicle-treated
Measurement: GFP-positive cells
SMILES = CC1=C(/C=C/C(C)=C/C=C/C(C)=C/C=C/C=C(C)/C=C/C=C(C)/C=C/C2=C(C)CCCC2(C)C)C(C)(C)CCC1; result = 107%
SMILES = N#Cc1ccc(C(c2ccc(C#N)cc2)n2cncn2)cc1; result = 123%
SMILES = CC(=O)O[C@H]1C[C@@H]2CC[C@@H]3[C@H](CC[C@@]4(C)[C@H]3C[C@H]([N+]3(C)CCCCC3)[C@@H]4OC(C)=O)[C@@]2(C)C[C@@H]1N1CCCCC1; result = 110%
SMILES = COc1ccc(Cl)cc1C(=O)NCCc1ccc(S(=O)(=O)NC(=O)NC2CCCCC2)cc1; result = 107%
SMILES = CCCc1nc2c(C)cc(-c3nc4ccccc4n3C)cc2n1Cc1ccc(-c2ccccc2C(=O)O)cc1; result = 98.4%
SMILES = C[C@H](O)C(=O)Nc1c(I)c(C(=O)NC(CO)CO)c(I)c(C(=O)NC(CO)CO)c1I; result = 109%
SMILES = O=NN(CCCl)C(=O)NC1CCCCC1; result = 109%
SMILES = C=C1C[C@@H]2[C@H](CC[C@]3(C)C(=O)CC[C@@H]23)[C@@]2(C)C=CC(=O)C=C12; result = 111%
SMILES = Fc1ccc([C@@H]2CCNC[C@H]2COc2ccc3c(c2)OCO3)cc1; result = 112%

Excerpt of the above (set 2):
test = parasite growth; system = DD8 amphotericin B-resistant, intracellular amastigotes; setting = 20 µM; result = 100% and 101%
test = parasite growth; system = DD8 amphotericin B-resistant, intracellular amastigotes; setting = 0.08 µM; result = 1% and 12% and 14% and 2% and 9%
test = parasite growth; system = DD8 amphotericin B-resistant, promastigotes; setting = 1.66 µM; result = 41% and 52% and 46% and 42%
